Measured values gathered from unrelated publications.
Each numbered part is a random draw from the data of one study; scales do not carry over between parts.

Sample 1 — cell line: HEK-293T/ACE2; concentration: 10 µM; time: 16 h; relative to: vehicle
`Cc1cc(C)nc(NS(=O)(=O)c2ccc(N)cc2)n1` gave a viability of 99.6%.
The viability of `O=C(O)Cc1ccccc1Nc1c(Cl)cccc1Cl` is reported as 101%.
`O=C(O)c1cc(/N=N/c2ccc(S(=O)(=O)Nc3ccccn3)cc2)ccc1O` has a viability of 98.3%.

Sample 2 — technique: protein-binding microarray; form: double-stranded DNA, one strand shown; medium: in vitro; concentration: 940 nM top; notes: 60-bp whole probe; added: salmon DNA 0.4 mg/ml; relative to: random background probes; direction: higher = stronger binding; shared flanks, not repeated: GCCTAGCAC … GTCTTGATTCGCTTGACGCTGCTG
Target: Interferon regulatory factor 5, full length, phosphomimetic (IRF5, Homo sapiens, UniProt Q13568-2, residues 1-514, S451D/S453D/S456D/S462D)
`TTAGATATCAGGTTTCGATTAGTGCTA`: “fitted relative affinity” 5.77 z-score.
`GACGGTCTCGGTCTCGGAACGTGCTAG` — result for “fitted relative affinity”: 4.3 z-score.
For `TTAGGTATCGACTTTCGATTAGTGCTA`, “fitted relative affinity” read 5.87 z-score.
For `GACGAACTGGGGTATCGAGATGTGCTA`, “fitted relative affinity” read 0.804 z-score.
For `GACGGTCTCCTTCTCCGGACGTGCTAG`, “fitted relative affinity” read 0.934 z-score.
For `GACGGTATCGAGTATCGGGACGTGCTA`, “fitted relative affinity” read 4.66 z-score.
Under “fitted relative affinity”, `TCCTCTTTTTTGTTCCACGCGTGCTAG` is recorded as 1.78 z-score.
`GCCGAACTGAGTTTCGAGACGTGCTAG`: “fitted relative affinity” 4.49 z-score.

Sample 3 — effect on: enzyme activity; mode: inhibitor; concentration: 20 µM; notes: hit confirmation, no DTT
Target: Replicase polyprotein 1ab, main protease (rep, Severe acute respiratory syndrome coronavirus 2, UniProt P0DTD1)
The inhibition of `O=C(O)CCCCCCCCCCCCCCc1ccc(I)cc1` is reported as 98.4%.
With `Cn1sc(=O)n(Cc2ccccc2)c1=O` the inhibition was 110%.
The inhibition of `CCCCCCCCCCCCCCCC[n+]1ccn(Cc2ccccc2)c1C` is reported as 77.8%.
With `COc1ncc(-c2ccc3nccc(-c4ccnnc4)c3c2)cc1NS(=O)(=O)c1ccc(F)cc1F` the inhibition was 107%.
`O=C1NC(=O)C(c2ccccc2)N1` (stereo not drawn) gave an inhibition of 69.8%.

Sample 4 — effect on: enzyme activity; mode: inhibitor; concentration: 20 µM
Target: Replicase polyprotein 1ab, polymerase (rep, Severe acute respiratory syndrome coronavirus 2, UniProt P0DTD1)
`Cc1c(N)cccc1Cn1ccc(OCCc2cccs2)cc1=O` has an inhibition of 8.14%.
With `CCCNC(C)C(=O)Nc1c(C)csc1C(=O)OC` (stereo not drawn) the inhibition was -0.2%.
`O=C(c1ccc(OCCCc2c[nH]cn2)cc1)C1CC1` gave an inhibition of -1.67%.
With `Cn1c(=O)cc(N2CCC[C@@H](N)C2)n(Cc2cc(F)ccc2C#N)c1=O` the inhibition was -3.82%.
The inhibition of `COCc1c(-c2ccc(NC(=O)Nc3cc(C(F)(F)F)ccc3F)c(F)c2)c2c(N)ncnn2c1CN1CCOCC1` is reported as -9.87%.
`Cc1cc(/C=C/c2ccc3cc(N(C)C)ccc3[n+]2C)c(C)n1-c1ccccc1` gave an inhibition of 7.79%.
With `CC(C)C[C@H](CN)CC(=O)O` the inhibition was -7.98%.
`C[C@H](CCC(=O)O)[C@H]1CC[C@H]2[C@@H]3C[C@H](O)[C@@H]4C[C@H](O)CC[C@]4(C)[C@H]3CC[C@]12C` has an inhibition of -5.29%.
The inhibition of `N#Cc1cc(F)cc(-c2nc(-c3ccc(F)cn3)no2)c1` is reported as -0.65%.
For `COc1cc2c(cc1C(F)(F)F)N(C(=O)Nc1cc(F)cc(-c3cccnc3)c1)CC2`, the inhibition was -3.6%.
For `C=CCN1C[C@H](C)N([C@H](c2ccc(C(=O)N(CC)CC)cc2)c2cccc(OC)c2)C[C@H]1C`, the inhibition was 2.13%.
`CCn1c2ccccc2c2cc(CNC)ccc21` gave an inhibition of -7.41%.
`CCCCN1[C@@H]2CC[C@H]1CC(OC(c1ccc(F)cc1)c1ccc(F)cc1)C2` (stereo partly drawn) gave an inhibition of 2.49%.
The inhibition of `NC(=O)NO` is reported as 26.8%.

Some of these lines once more (sample 4):
For `COc1cc2c(cc1C(F)(F)F)N(C(=O)Nc1cc(F)cc(-c3cccnc3)c1)CC2`, the inhibition was -3.6%.
`Cc1c(N)cccc1Cn1ccc(OCCc2cccs2)cc1=O` has an inhibition of 8.14%.
